Experimental data collected from several papers.
± gives the spread as reported.

`O=C(Nc1nc2cccc(-c3ccc(CN4CCS(=O)(=O)CC4)cc3)n2n1)C1CC1` — result for “treatment-emergent adverse events”: 0% (measured: vertigo; rheumatoid arthritis patients; oral, 300 mg once daily, 4 weeks, any relatedness).
`O=c1[nH]c(=O)n([C@@H]2O[C@H](CO)[C@@H](O)[C@@H]2F)cc1CCCC[18F]` gave a biodistribution of 0.04 ± 0.01 %ID/g (nude mice, RG2 tumour, brain; intravenous, dose not given, 2 h).
For `CCOC(=O)N1C[C@@H]([C@H]2CCOC2)N[C@@H](C2CCC2)C1`, the solubility was > 750 µM (shake-flask, LC-HRMS; aqueous buffer; 16 h, pH 6.8).
`O=C(O)CCCCCCCCCCC(=O)O` gave a Cmin of 18.5 ± 2.4 nM (human, plasma; oral, dose not given, control).
For `O=C(O)CCC(=O)O.[2H]C([2H])([2H])Oc1cc(C)c2[nH]ccc2c1CN1CC[C@@H](C2CC2)C[C@H]1c1ccc(C(=O)O)cc1`, “subjects with TEAE Appendicitis” read 0% (multiple ascending dose; healthy Chinese subjects; 50 mg twice daily).
`C[C@@H](Oc1ccc(S(C)(=O)=O)cc1C(=O)N1C[C@@H]2C[C@]2(c2cc(C(F)(F)F)on2)C1)C(F)(F)F`: “half-life at steady state” 38.3 h (young humans, plasma; oral, 75 mg once daily, multiple dose, geometric mean).
With `Cc1c(NS(=O)(=O)c2cccc3nonc23)c(=O)n(-c2ccccc2)n1C` the solubility was 5.48 µg/mL (aqueous buffer; pH 7.4).
`Cc1coc([C@H]2C[C@H]3[C@@H](CF)SC(N)=N[C@@]3(c3ccc(F)cc3F)CO2)n1` has a CSF concentration of 189 nM (male 129/SVE mouse, CSF; subcutaneous, 80 mg/kg, 3 h).
For `COc1nc(-c2cc(C)c(N[C@@H](C)c3cc(F)cc(F)c3)nn2)ccc1-n1cnc(C)c1`, the MRT(0-t) was 2.83 h (cynomolgus monkey, male, plasma; intravenous, 1 mg/kg).
`CN1CCN(c2cccc3c2CCN(C(=O)/C=C/c2c(-n4cnnn4)ccc(Cl)c2F)[C@@H]3C(=O)Nc2ccc(C(=O)O)cc2)C(=O)C1` — result for “discontinuations due to adverse events”: 0% (healthy human subjects; intravenous infusion, 20 mg/h, 5 days).
For `COc1ccc([C@@H](O)c2cc(-c3ncnc4cc(N5CCOCC5)ccc34)c(F)cc2Cl)nn1`, “TEAE, rectal tenesmus” read 37% (locally advanced rectal cancer; all dose levels overall, together with: capecitabine and radiotherapy).
For `Cc1ccc([C@@H]2O[C@H](CO)[C@@H](O)[C@H](O)[C@H]2O)cc1Cc1ccc(-c2ccc(F)cc2)s1`, “urinary calcium excretion change” read -4.12 mg (Japanese type 2 diabetes patients; 100 mg, day 4, 24 h urine collection; relative to: baseline).
The AUCτ of `Cn1ncnc1[C@H]1c2n[nH]c(=O)c3cc(F)cc(c23)N[C@@H]1c1ccc(F)cc1` is reported as 206 ng·h/mL (human patients, plasma; oral, 600 µg/m2 twice daily day 1, day 5, dose level DL5, median, together with: temozolomide 40 mg/m2 daily days 2-6).
`O=C(Nc1cnccc1Cl)N1CCN(Cc2ccc3c(c2)OC(F)(F)O3)CC1` — result for “adverse event incidence”: 83.3% (measured: Dizziness; human healthy young women; 100 mg, multiple dose).
The solubility of `CCOC(=O)N1C[C@@H](C2CCOCC2)N[C@@H](C2CCOCC2)C1` is reported as > 750 µM (shake-flask, LC-HRMS; aqueous buffer; 16 h, pH 6.8).
`C[C@@H](Nc1cc(F)cc(F)c1)c1cc(C(=O)N(C)C)cc2c(=O)cc(N3CCOCC3)oc12`: “related serious adverse events” 3.2% (measured: Diarrhea; advanced solid tumour patients; oral, dose not given, dose finding).
With `CC1(C)C(/C=C/C2=C(Cl)C(=C/C=C3\N(CCCCCC(=O)O)c4ccccc4C3(C)C)/CCC2)=[N+](CCCCCC(=O)O)c2ccccc21` the Stokes shift was 20 nm (water).
`Cc1cc(NC2CCc3cc(Cl)ccc3C2)n2nc(C(C)(F)F)nc2n1` (stereo not drawn) has an AUC(0-t) of 6.51 µM·h (NSG mouse, whole blood; oral, 10 mg/kg).
`CN(CCCN1CCN(C(=O)CN2CCN(CC(=O)[O-])CCN(CC(=O)[O-])CCN(CC(=O)[O-])CC2)CC1)c1ccc2nccc(C(=O)NCC(=O)N3CC(F)(F)C[C@H]3C#N)c2c1.[68Ga+3]` gave an uptake of 0.3 %IA/g (mice, HT-1080.hFAP and HT-1080 wild-type xenografts, liver; iv, 500 pmol, 4 h post injection).
The MRT(0-inf) of `Cc1cccc(CNC(=O)c2cn(CCNC(=O)c3ccccc3Sc3c([N+](=O)[O-])ncn3C)c3cc4c(cc3c2=O)OC(F)(F)O4)n1` is reported as 0.57 ± 0.26 h (Sprague-Dawley rat, male, plasma; intravenous, 5 mg/kg of parent drug).
`NC/C(=C\F)COc1cccc(Cn2c(=S)[nH]c(=O)c3[nH]cnc32)c1` gave a concentration of 293 ng/mL (C57BL/6J mice, plasma; oral, 15 mg/kg single, 1 h).
`CC[C@@H]([C@H](C)O)n1ncn(-c2ccc(N3CCN(c4ccc(OC[C@@H]5CO[C@@](Cn6cncn6)(c6ccc(F)cc6F)C5)cc4)CC3)cc2)c1=O` — result for “stability relative error”: 3.3% (rat plasma; 2 ng/mL, 4 h, 10 °C, autosampler; relative to: nominal concentration).
Under “incidence of Diarrhoea”, `NC1(C(=O)N[C@@H](CCO)c2ccc(Cl)cc2)CCN(c2nc[nH]c3nccc2-3)CC1` is recorded as 60% (metastatic CRPC patients; 480 mg b.i.d., any grade, treatment-related, together with: enzalutamide 160 mg daily).
With `COc1cccc(-c2n[nH]c(SCc3ccccn3)n2)c1OC` the plasma concentration was 192 ng/mL (Sprague-Dawley rats, both sexes; oral dietary, 30 mg/kg/day, day 7, 0 h).
`COc1ccc2c(c1)CN(C(=O)CCN1CCC(Cc3ccccc3)CC1)CC[S@@+]2[O-]` gave a QRS duration of 34 ± 10 ms (telemetry; conscious male beagle dogs; intravenous, 8 mg/kg, 2 h).
The solubility of `Cc1nc(N)sc1-c1ccnc(Nc2ccc(N(C)C)cc2)n1` is reported as < 1.17 µg/mL (aqueous buffer; pH 7.4).
`COc1ccc(Oc2cc(N(C)CCOc3ccc(CC4SC(=O)NC4=O)cc3)ncn2)cc1` (stereo not drawn): “total bilirubin reduction” 0.07 mg/dL (type 2 diabetes patients, serum; 0.5 mg once daily, 12 weeks, real-world retrospective study).
`CCOc1c([C@H](C)n2nc(C)c3c(N)ncnc32)cc(Cl)c(F)c1[C@@H]1CNC(=O)C1`: “share of ECG observations” 100% (measured: ΔQTcF ≤ 30 ms; previously treated B-cell malignancy; oral, 45 mg once daily, baseline QTcF ≤450 ms).
`CCO[C@H]1CCN(Cc2c(OC)cc(C)c3[nH]ccc23)[C@H](c2ccc(C(=O)O)cc2)C1` has a total Cmax of 3600 ng/mL (healthy volunteers, plasma; oral, 200 mg single dose, median).
`O=C(COc1ccc(Cl)cc1)NC12CC(c3nnc([C@H]4C[C@@H](OC(F)(F)F)C4)o3)(C1)C2` — result for “adverse event incidence”: 10.5% (measured: Presyncope; human; 28 (unit not given)).
For `N[C@@H](C[18F])C(=O)O`, the tracer uptake was 2.17 ± 0.62 %ID/cc (PET imaging; female athymic nude mice, U-87 MG xenograft, tumor; intravenous, 15 min).
`Cc1ccc(Sc2ccccc2N2CCNCC2)c(C)c1`: “increased urine β2-microglobulin” 12.5% (elderly women; oral, 10 mg single).
`Cn1cc(Nc2nc(N)nc(-c3cccc(-n4ccc5cc(C6CC6)cc(F)c5c4=O)c3CO)n2)cn1`: “drug-related vomiting subjects” 0% (healthy subjects; oral, 300 mg tablet, fed high-fat breakfast).
The solubility of `Cc1c([C@@H]2COC[C@H](c3cc(Cl)cc(Cl)c3)N2)cnn1-c1ccccc1` is reported as < 4 µM (shake-flask, LC-HRMS; aqueous buffer; 16 h, pH 6.8).
With `O=c1[nH]c(=O)n([C@H]2C[C@H](O)[C@@H](CO)O2)cc1CCCCC[18F]` the biodistribution was 0.12 ± 0.05 %ID/g (male CD-1 nu/nu mice, RG2 tumour, skin; intravenous, dose not given, 2 h).
With `C[C@@H](NC(=O)N1C(=O)[C@H](Cc2ccnc(N)c2)[C@H]1C(=O)O)C1CCCCC1` the Css was 937 ng/mL (UPLC-MS/MS; healthy adult Chinese volunteers, plasma; continuous intravenous infusion, 0.3 mg/kg/h, day 1 of 5-day infusion, geometric mean).
`CN(C)C(=N)N=C(N)N`: “subjects with adverse event” 8.3% (measured: Dizziness; healthy human; oral, dose not given).
Under “adverse event incidence”, `Cc1c(C(=O)O)ccc2c3n(nc12)[C@@H]1[C@H](C3)N(CC2CC2)[C@@]2(C(=O)Nc3cc(Cl)ccc32)[C@H]1c1cccc(Cl)c1F` is recorded as 0% (phase Ia trial, measured: Headache; cancer patients; oral, dose not given, all patients grade ≥3).
For `CCN1CCN(Cc2ccc(Nc3ncc(F)c(-c4cc(F)c5nc6n(c5c4)[C@H](C)CCC6)n3)nc2)CC1`, the CL/F was 56.1 L/h (human, plasma; 500 mg multiple dosing, mean).
`c1ccc([C@H]2CC[C@@]3(CC2)COC[C@@H](C2CCOCC2)N3)cc1` gave a solubility of > 750 µM (shake-flask, LC-HRMS; aqueous buffer; 16 h, pH 6.8).
`C=CCN1CC(=O)N2[C@@H](Cc3ccc(O)cc3F)C(=O)N(Cc3cccc(N4CC(N5CCN(CC)CC5)C4)n3)C[C@@H]2N1C(=O)NCc1ccccc1`: “treatment-related decreased appetite” 0% (advanced solid tumour patients; oral, 15 mg twice daily, any grade, dose-escalation).
For `CCc1cc(C(=O)NC)c2nccc(N3CCc4c(cc(Cn5ccnc5)cc4-c4cn(C)nc4C(F)(F)F)C3=O)c2c1`, “serum DBIL level” read 0.8 ± 0.06 µmol/L (Sprague Dawley rats; oral, 100 mg/kg twice daily, 7 days).
`CCc1ccc(-c2ccc(-c3cc(F)c(F)c(F)c3)c(F)c2)cc1` has a placental accumulation of 2.45 ± 2.57 ng/g (rat, placenta; 10 ng/mL in perfusate, low dose, mixture of 21 LCMs).
`Cl.[2H]C([2H])([2H])CC(=O)c1cnc(NC(=O)C2CC2)cc1Nc1cccc(-c2ncn(C([2H])([2H])[2H])n2)c1OC` gave an AUC(0-tau) of 911 ng·h/mL (geometric mean; human; oral, 20 mg twice daily, day 1, fed, liquid, multiple dose).
The solubility of `CCOC(=O)N1C[C@@H](C2CCCC2)N[C@@H](c2ccc(-c3ccccc3)cc2)C1` is reported as < 4 µM (shake-flask, LC-HRMS; aqueous buffer; 16 h, pH 6.8).
`CCN1/C(=C/C(C)=O)Sc2ccc(F)cc21` gave a QRS duration of 36 ± 1 ms (cynomolgus monkey; oral, 10 mg/kg, 24 h post-dose).
Under “excretion as parent”, `Cc1cc(C)c(CNC(=O)c2cc(Cl)c3c(c2C)O[C@@](C)([C@H]2CC[C@H](N(C)C)CC2)O3)c(=O)[nH]1` is recorded as 74.9% (human male, urine and feces; oral, 200 mg; relative to: dose).
For `C=CC(=O)NC1CCN(c2ncc3ncnc(Nc4ccc(Oc5ccc6c(c5)ncn6C)c(C)c4)c3n2)CC1`, “participants with grade 2 pain” read 6.3% (human, male; oral, 240 mg, treatment-emergent adverse event).
Under “QRS duration change”, `CNCCOC12CC3(C)CC(C)(CC(Cn4ncc(-c5ccc(N6CCc7cccc(C(=O)Nc8nc9ccccc9s8)c7C6)nc5C(=O)O)c4C)(C3)C1)C2` is recorded as 0 ms (beagle dog, male, anaesthetised; intravenous bolus, 0.03 mg/kg, 90 min; relative to: baseline).
`O=C(O)CCCOc1ccc([18F])cc1-c1cc(-c2ccccc2C(F)(F)F)n(-c2ccccc2)n1` gave a radioactivity uptake of 1.07 ± 0.6 SUV (gamma counting; male ddY mice, muscle; intravenous, 2.1 MBq, 1 min).
`CCCCOc1ccc([C@H]2CC[C@H](CCC)CC2)c(F)c1F` has a placental accumulation of 18.8 ± 9.14 ng/g (rat, placenta; 10 ng/mL in perfusate, low dose, mixture of 21 LCMs).
For `CCOC(=O)N1C[C@@H](c2ccc(Cl)cc2)N[C@@H](c2ccc(C(C)(C)C)cc2)C1`, the solubility was < 4 µM (shake-flask, LC-HRMS; aqueous buffer; 16 h, pH 6.8).
`O=S(=O)(NCc1ccccn1)c1ccc(Cl)c(Cl)c1Cl` has a solubility of 10.7 µg/mL (aqueous buffer; pH 7.4).
`O=C(Nc1ccc(OC(F)(F)Cl)cc1)c1cnc(N2CC[C@@H](O)C2)c(-c2ccn[nH]2)c1`: “grade ≥2 event rate” 0.6% (per treatment cycle, measured: ALT increase; human patients; oral, dose not given, 28 day cycle).
`N#Cc1cc([C@H]2COC[C@@H](c3ccc(-c4ccccn4)cc3)N2)ccc1F` gave a solubility of < 4 µM (shake-flask, LC-HRMS; aqueous buffer; 16 h, pH 6.8).
With `N#Cc1ccc2c(c1)[C@H]1CCCN(C(=O)c3ccc4[nH]cnc4c3)[C@H]1C2` the DHEA-S level was 4.5 µmol/L (human, female; 160 mg, end of trial).
For `C[C@@H](N)C1CCN(S(=O)(=O)c2cccc3cnccc23)CC1`, “participants with dizziness” read 33.3% (healthy volunteers; 150 mg, fasted).
For `CCOC(=O)N1C[C@@H](C2CCOCC2)N[C@@H](C2CC2)C1`, the solubility was > 750 µM (shake-flask, LC-HRMS; aqueous buffer; 16 h, pH 6.8).
The AUC(0-t) of `CNC(=O)c1ccc(-c2cnc3ncc(Cc4ccc5ncccc5c4)n3n2)cc1F` is reported as 5580 ng·h/mL (human, plasma; oral, 200 mg, mean).
`CC(C)(C(=O)N1CCOc2c(C#N)cncc2C1)C(F)F`: “subjects with adverse event” 0% (measured: chest discomfort; human; oral, 20 mg twice daily, 14 days, multiple ascending dose).

For quick reference, copied from above:
For `CCOC(=O)N1C[C@@H](c2ccc(Cl)cc2)N[C@@H](c2ccc(C(C)(C)C)cc2)C1`, the solubility was < 4 µM (shake-flask, LC-HRMS; aqueous buffer; 16 h, pH 6.8).
`O=S(=O)(NCc1ccccn1)c1ccc(Cl)c(Cl)c1Cl` has a solubility of 10.7 µg/mL (aqueous buffer; pH 7.4).
`O=C(Nc1ccc(OC(F)(F)Cl)cc1)c1cnc(N2CC[C@@H](O)C2)c(-c2ccn[nH]2)c1`: “grade ≥2 event rate” 0.6% (per treatment cycle, measured: ALT increase; human patients; oral, dose not given, 28 day cycle).
`N#Cc1cc([C@H]2COC[C@@H](c3ccc(-c4ccccn4)cc3)N2)ccc1F` gave a solubility of < 4 µM (shake-flask, LC-HRMS; aqueous buffer; 16 h, pH 6.8).
With `N#Cc1ccc2c(c1)[C@H]1CCCN(C(=O)c3ccc4[nH]cnc4c3)[C@H]1C2` the DHEA-S level was 4.5 µmol/L (human, female; 160 mg, end of trial).
For `C[C@@H](N)C1CCN(S(=O)(=O)c2cccc3cnccc23)CC1`, “participants with dizziness” read 33.3% (healthy volunteers; 150 mg, fasted).
